Measurements collected from several papers.
Every numbered part comes from another study and shows a few of its results, in no order. Changes are numbered by the printed parent chain.

Study 1
Target: Interferon regulatory factor 7, full length, phosphomimetic (IRF7, Homo sapiens, UniProt Q92985, residues 1-503, S471D/S472D/S475D/S476D/S477D/S483D/S484D/S487D)
Method: protein-binding microarray
Form: double-stranded DNA, one strand shown
Matrix: in vitro
Tested at: 2200 nM top
Setting: 60-bp whole probe
Added: salmon DNA 0.4 mg/ml
Baseline: random background probes
Reading: higher = stronger binding
All sequences stand within: GCCTAGCAC … GTCTTGATTCGCTTGACGCTGCTG
Construct (chain): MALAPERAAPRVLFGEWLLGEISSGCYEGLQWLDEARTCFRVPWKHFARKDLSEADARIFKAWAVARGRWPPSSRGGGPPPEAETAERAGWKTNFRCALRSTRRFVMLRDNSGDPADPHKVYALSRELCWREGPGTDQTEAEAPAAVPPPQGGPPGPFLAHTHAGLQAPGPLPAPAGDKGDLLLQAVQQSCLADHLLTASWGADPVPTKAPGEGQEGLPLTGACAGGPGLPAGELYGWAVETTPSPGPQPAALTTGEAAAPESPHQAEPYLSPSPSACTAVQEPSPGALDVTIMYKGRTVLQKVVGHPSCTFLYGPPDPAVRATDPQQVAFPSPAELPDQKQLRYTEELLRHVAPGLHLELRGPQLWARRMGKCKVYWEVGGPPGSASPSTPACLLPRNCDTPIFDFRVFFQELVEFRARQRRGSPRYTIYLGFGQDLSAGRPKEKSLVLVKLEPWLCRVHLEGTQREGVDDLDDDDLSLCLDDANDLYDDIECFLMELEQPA
| Oligonucleotide | fitted relative affinity |
| --- | --- |
| TACGGACTGGGGACTGGGGACGTGCTA | -0.512 z-score |
| ATAGATTTCGGGTATCGATTAGTGCTA | 2.96 z-score |
| TCAGGACTGGGGTATCGGTTAGTGCTA | -0.557 z-score |
| GACGGTCTCCGTCTCGGGACGTGCTAG | -0.441 z-score |
| TTAGGACTGGTGACTGGGTTAGTGCTA | -0.928 z-score |
| TTAGGTTCCCGTTTCCTTTAGTGCTAG | 3.34 z-score |
| GTGACTCTGAACCTTGGGCTGTGCTAG | 0.113 z-score |
| TATGTCTGGCCCAAGCAGCCGTGCTAG | -0.455 z-score |
| GCCGGTATCCTTCTCCTGACGTGCTAG | 1.12 z-score |
| TTAGATTTCGGGATTCGATTAGTGCTA | 2.38 z-score |
| GACGCACTGCTTCTCCTGACGTGCTAG | 0.931 z-score |
| TCACTTTCCACTTTCTTACTGTGCTAG | 8.73 z-score |
| TTTTGCTTTCATTTATTTACGTGCTAG | 6.8 z-score |
| CTGGGTATTTTTCTAAACCAGTGCTAG | 0.26 z-score |
| TACGGACTGGGTATCGGGACGTGCTAG | -0.828 z-score |
| GGCGGACTGGGTCTCGGGACGTGCTAG | -1.66 z-score |
| TTAGGTAGCGGGTTTCGGTTAGTGCTA | 2.9 z-score |
| TTAGATTTCGGTACTGGATTAGTGCTA | 2.05 z-score |
| GTCCTTTTCTTTACTGATGGGTGCTAG | 1.88 z-score |
| TTCTATGTCTGTTTTTGCTTGTGCTAG | 1.83 z-score |
| GACGATTTCTGACTGGAGACGTGCTAG | 0.602 z-score |
| TAAGGTCTCCTTTTCCTTTAGTGCTAG | 2.12 z-score |
| GTAGGTTTCCTTTCCCTTTAGTGCTAG | 5.11 z-score |

Study 2
Target: RNA binding protein fox-1 homolog 2, RRM domain, GST-SBP tag (RBFOX2, Homo sapiens, UniProt O43251-10, residues 100-194)
Method: RNA Bind-n-Seq
Form: RNA
Matrix: in vitro
Tested at: 365 nM
Setting: natural RNA segment, single round, ends assumed
Baseline: no-protein control
Reading: higher = stronger binding
All sequences stand within: GGGAGUUCUACAGUCCGACGAUC … UGGAAUUCUCGGGUGCCAA
Residues (chain): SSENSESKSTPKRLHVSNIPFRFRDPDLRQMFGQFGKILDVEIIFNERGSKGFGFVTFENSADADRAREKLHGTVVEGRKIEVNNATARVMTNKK
| Oligonucleotide | RBNS enrichment (R) |
| --- | --- |
| AAAAUUCAGAGAUGAGAUCUUAACACAGCUUCACUCAGGAAGAGACUCACAUGACAGAGCAACUCUGAAUGCAAAGUGACAUCUUCACAAAUGCCAUGGCCAUUGCUGAC | 0.425 |
| AAAUGCUAUUUUUACUAAACAUGUCGUACCUAUGCAGUAUAUACAUUAAAGGAAAGCUUGCACUGUAUCUACUUGGUAUUUCUUUUCUUACCAAGCUGGAUAGUAAAGUC | 0.294 |
| UGGUUUUUGUUUCUUGCAUUUCUCUGGGAUGUGAAACACUUGGCUAACAAACACAACUAAGGCCUCUGGUACCCUCUGCCCUGCUGGCCUGGUGAUGUCCCAGUGUCUCA | 0.661 |
| GUAAUCUCAUCAGGUUGGGACAUUAAUCUUUUCAACUCCUUGUAAGAUUUCCCAGUUUGGUUUCUCUACAUGUCCUGCAGCUGCCCCACUUCUCCUUUACGCUGUGUAGA | 0.314 |
| GCUAUAAGCUGCUUCAGAUAUAAAAUUGGUUUAUCUAUAAUGUUUGUUCAUUUAAUAGCUUCUAAAAGGCCUUUUUGUUAUACAGUGCUUUUUUUCUAGUUUUAUGGACU | 0.458 |
| CUGGAGGUCAGCUAUAGCUAAAAUUGUUAUUUCUCUGGGGAGGGGACUUUUUUUAUCUUUAUUUUUAUUUUGGAGAUUGGAUUUUUCUAUGUAGCUAUGGCUGUCCUUGA | 1.41 |
| UUGCUUUCAAAAUACAAGCACAGCAGUCCUUGAAUGGCUGUUGACCCAGGGCACCUAGCUGUCCCUGCUGGUCCUGGGGCUGCCAGAAUUCCCUUGGGCGCCAAGCAACC | 0.313 |
| CUUGCAUUGACAUGUUUCCUUUUGAAAUGAGGUAAUCAAUUAGGUGGGGAAAAAAAUGUUCUCGACUGAUACUUGUAUAUCGGGUGCAUUUAAUGGCAGUCACAACUCUG | 0.331 |
| ACACCACCGGUUACUGGCUCCUGGAUGAGGGGGCCAGAGAGGAGUGAAUAACUUCCCAGACACUUAUCUCCAGGGCAGGGUGCCUUCCAGUAGCCAAGGGAAGCCUCCAG | 0.222 |
| GGGGCCAGAGAGGCGGCUCAGGUUGCCCAGCUCUGUGGCCUCAGGACUCUCUGCCUCACCCGCUUCAGCCCAGGGCCCCUGGAGACUGAUCCCCUCUGAGUCCUCUGCCC | 0.223 |
| AUUCUUUAAAAGCCAAGGUGCCCAUAUGGAAAAAGGGCUUGACUUAAACCUGUGAUAAGAUGUCUGCAAUAGACUCAGCCUUCUGUGACUAACUCCUAACUAACCAGCUC | 0.441 |
| AUCCCAGCACCAGUCUGCUUGAGCCCUGCACUCACUGCUCGGGAAUGGCAAGCUCCCAGAUUCCUUCCAGGAAAGUCAACUGUGUCUUAAGGCUUUGCGGCCUGCGCAGA | 0.64 |

Study 3
Target: RING finger protein unkempt homolog, zinc fingers 1-6, SBP tag (UNK, Homo sapiens, UniProt Q9C0B0, residues 30-357)
UniProt Q9C0B0, sequence (30-357, looked up): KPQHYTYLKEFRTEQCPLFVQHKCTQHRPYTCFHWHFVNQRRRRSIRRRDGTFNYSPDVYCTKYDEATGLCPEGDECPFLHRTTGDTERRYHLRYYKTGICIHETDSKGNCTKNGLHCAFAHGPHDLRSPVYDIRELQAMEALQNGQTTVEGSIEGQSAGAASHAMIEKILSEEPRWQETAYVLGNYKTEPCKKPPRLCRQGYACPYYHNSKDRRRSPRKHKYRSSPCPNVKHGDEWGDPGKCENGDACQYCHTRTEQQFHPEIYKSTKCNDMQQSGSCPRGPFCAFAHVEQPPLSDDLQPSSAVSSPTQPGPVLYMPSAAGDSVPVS
Method: RNA Bind-n-Seq
Form: RNA
Matrix: in vitro
Tested at: 100 nM
Setting: RNA with constant flanks, vertebrate orthologous sites, ends assumed
Baseline: input RNA pool
Reading: higher = stronger binding
All sequences stand within: GGGAGUUCUACAGUCCGACGAUC … CAACAGAGGAUUGAGCAUCA
| Oligonucleotide | bound/input enrichment [ratio] |
| --- | --- |
| UUUUAUCGAUCAGGUCUGUAAAUGUGAACUAAAAAAAUCAGAGUUUAUUUAUGAACAGAGUAGUUUAUUUGGAGAGCAGCUCUUGUCCCUUGGUCCUGUGGUCUGCACUCGCUACACUGU | 0.23 |
| UUACAGUCAUUGAUGGACUCUAUUUUUUUAUUAUUACUUGGACCUUGGUCGUUUUUAUACUAGCAAAAUGUCUUGUUUUAAUUUGUGUUUUUUUGGGGGGGUGGGAGUGAACUUGCUGAU | 1.51 |
| GAGCUCAGCACAUAACAACUGACACCCCCAAAAGGCGUAGAAAAGGUUUACAAAAUAAUCUAGUUUUACGAAGAAAUCUUGUGCUAGAAUACUUUUUAAAGUAUUUUUGAAUACCAUUAA | 0.263 |
| UAAAAUCUGGAUCUUGGAACCAAACCAAGGGGUUUGGAAGUAAAGAAAUUUGUAAAGUCCCAGCCCACGCAGCUGCACAGCACACCACCGCUGGCUGCUGUGUUCAGGUGUUUAUGGCAG | 0.121 |
| CCACUAUAAACAACUCAGGGCAGUACUCCCGCUAUCCUUACAGCAACCUAAAUCAGGGAUUAGUUAACAGUACAGGGAUGAACCAGAACCUAGGCCUUACCAAUAGCGCUCCCCUGAACC | 0.976 |
| GAGCUAAAGGAGUUAGCAUCUUUAUUUUUGUAUCAAAGAUAAAGGUUAUUUUGAAAUUAUUAGAAUUUUCACACAACUCUGAAAUCUGUUGCUUUUGUAAACAAAUUGUUUGAUCUAGGG | 0.381 |
| GUCCCUCAGUGACAGUAUGCCGUCUGUAGCCGAUUCCCACUCCAGUCACUUUUCUGAGUUUAGCUGCUCGGACUUAGAGAGCAUGAGAACGUCGUGUAUUCAUGGCUCCAGUGAUUGUCA | 0.34 |
| AUUAAAUGUGUAUCAAAUGCUGGAUAUAACAUUAAACCAUCAUUUACAAUAGAUGUUAAUUUGUUACAGUUAAGCUACAAAUAGGUUUCCUUAAACCAGAGAUGCACUCCCCUUGUCUGA | 0.204 |
| CACAUCUGGCGAUAUUUGGCCUGGCCUUUCUGCUUAUGAUAAUAGUCCCAGAUCACCCCAUAGUCCUUCACCUAUUGCUACACCACCUAGUCAGAGUUCAUCCUGCUCUGAUGCCCCCAU | 1.04 |
| GCCAAACAAAAAGCCCAGGUUCUAGGUUUCCUUCACUUUAAAUCUAAUUCCACUGUUUAUUUUGUUAAAUUUUUAACUCUUGCAUUUUAGUAAGAAGCAUUUUUUUAUGGAUGCUCAGAU | 0.677 |
| GAAUCAUGGCCACUAACAUCUCAGUGGGGCAAGAAGCCUGCUUGGCAUUUCGGUUGGUACGAGAGAGGUGAUCCCUCAUAAAUCUGUUCGUGUUUCUCCUCGUUCUCUCAUAGUCAUCUU | 0.341 |

Study 4
Target: ABI1, truncated, D143A, DHFR fusion (Arabidopsis thaliana)
Method: DHFR PCA, deep sequencing
Matrix: yeast
Setting: methotrexate growth selection, single substitutions
Added: (+)-ABA 0 µM
Baseline: wild-type fitted maximum
Reading: higher = stronger binding
Starting sequence: PYL1, truncated, DHFR fusion (Arabidopsis thaliana); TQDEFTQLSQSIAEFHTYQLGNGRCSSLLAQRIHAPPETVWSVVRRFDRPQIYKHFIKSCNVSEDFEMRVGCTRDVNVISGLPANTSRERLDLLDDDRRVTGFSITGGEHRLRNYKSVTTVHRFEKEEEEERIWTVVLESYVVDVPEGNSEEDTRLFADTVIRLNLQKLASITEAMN
| Variant | relative binding score [%] |
| --- | --- |
| V142K | -11.6 |
| L91Q | -0.667 |
| R24C | 4.5 |
| G102F | -10.7 |
| S171H | 26.1 |
| G108S | 2.77 |
| S42P | -4.86 |
| L112D | 4.33 |
| I162Y | -4.58 |
| V161A | 5.54 |
| K168E | -1.06 |
| S63H | 4.09 |
| T86P | 6.82 |
| P146Y | -5.96 |
| D159E | 2.27 |
| R163S | 14.7 |
| N114S | 1.51 |
| T101C | 19.1 |
| D96C | -6.85 |

Excerpt of the above (study 1):
| Oligonucleotide | fitted relative affinity |
| --- | --- |
| GTGACTCTGAACCTTGGGCTGTGCTAG | 0.113 z-score |
| TTAGGACTGGTGACTGGGTTAGTGCTA | -0.928 z-score |
| TAAGGTCTCCTTTTCCTTTAGTGCTAG | 2.12 z-score |
| TCAGGACTGGGGTATCGGTTAGTGCTA | -0.557 z-score |
